Published values of several laboratories.
Compare with care: the assays were run in different laboratories. ± marks the error that the study gave.
KDM1A: Lysine-specific histone demethylase 1A (KDM1A, Homo sapiens, UniProt O60341)
Rhomboid protease AarA: Rhomboid protease AarA (Providencia stuartii, UniProt P46116)
Sequence of UniProt P46116 (whole entry, looked up): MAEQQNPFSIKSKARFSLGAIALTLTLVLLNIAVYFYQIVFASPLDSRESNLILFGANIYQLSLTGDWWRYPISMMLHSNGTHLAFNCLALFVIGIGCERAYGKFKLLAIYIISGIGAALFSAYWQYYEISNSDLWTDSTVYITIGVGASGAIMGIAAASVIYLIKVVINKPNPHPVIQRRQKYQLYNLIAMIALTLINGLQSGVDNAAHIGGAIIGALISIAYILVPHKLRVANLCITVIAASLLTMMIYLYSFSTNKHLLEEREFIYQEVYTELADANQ
IL1RL2: Interleukin-1 receptor-like 2 (IL1RL2, Homo sapiens, UniProt Q9HB29)
Sequence of UniProt Q9HB29 (whole entry, looked up): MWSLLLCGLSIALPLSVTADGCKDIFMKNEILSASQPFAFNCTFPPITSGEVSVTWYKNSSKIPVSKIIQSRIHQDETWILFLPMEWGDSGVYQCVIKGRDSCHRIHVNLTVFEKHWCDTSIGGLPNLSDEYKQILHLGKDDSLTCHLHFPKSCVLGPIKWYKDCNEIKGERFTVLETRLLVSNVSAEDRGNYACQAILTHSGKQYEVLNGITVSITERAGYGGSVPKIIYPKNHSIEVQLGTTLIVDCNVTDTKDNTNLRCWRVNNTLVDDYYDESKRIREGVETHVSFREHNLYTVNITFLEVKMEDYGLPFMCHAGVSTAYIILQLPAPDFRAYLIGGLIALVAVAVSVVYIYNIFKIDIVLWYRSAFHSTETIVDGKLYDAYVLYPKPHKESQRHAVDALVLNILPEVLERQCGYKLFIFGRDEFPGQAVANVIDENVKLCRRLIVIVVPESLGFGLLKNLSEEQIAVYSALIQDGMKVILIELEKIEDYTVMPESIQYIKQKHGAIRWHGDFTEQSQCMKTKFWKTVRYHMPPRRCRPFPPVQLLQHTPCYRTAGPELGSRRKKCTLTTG
Sequence of UniProt P00520 (whole entry, looked up): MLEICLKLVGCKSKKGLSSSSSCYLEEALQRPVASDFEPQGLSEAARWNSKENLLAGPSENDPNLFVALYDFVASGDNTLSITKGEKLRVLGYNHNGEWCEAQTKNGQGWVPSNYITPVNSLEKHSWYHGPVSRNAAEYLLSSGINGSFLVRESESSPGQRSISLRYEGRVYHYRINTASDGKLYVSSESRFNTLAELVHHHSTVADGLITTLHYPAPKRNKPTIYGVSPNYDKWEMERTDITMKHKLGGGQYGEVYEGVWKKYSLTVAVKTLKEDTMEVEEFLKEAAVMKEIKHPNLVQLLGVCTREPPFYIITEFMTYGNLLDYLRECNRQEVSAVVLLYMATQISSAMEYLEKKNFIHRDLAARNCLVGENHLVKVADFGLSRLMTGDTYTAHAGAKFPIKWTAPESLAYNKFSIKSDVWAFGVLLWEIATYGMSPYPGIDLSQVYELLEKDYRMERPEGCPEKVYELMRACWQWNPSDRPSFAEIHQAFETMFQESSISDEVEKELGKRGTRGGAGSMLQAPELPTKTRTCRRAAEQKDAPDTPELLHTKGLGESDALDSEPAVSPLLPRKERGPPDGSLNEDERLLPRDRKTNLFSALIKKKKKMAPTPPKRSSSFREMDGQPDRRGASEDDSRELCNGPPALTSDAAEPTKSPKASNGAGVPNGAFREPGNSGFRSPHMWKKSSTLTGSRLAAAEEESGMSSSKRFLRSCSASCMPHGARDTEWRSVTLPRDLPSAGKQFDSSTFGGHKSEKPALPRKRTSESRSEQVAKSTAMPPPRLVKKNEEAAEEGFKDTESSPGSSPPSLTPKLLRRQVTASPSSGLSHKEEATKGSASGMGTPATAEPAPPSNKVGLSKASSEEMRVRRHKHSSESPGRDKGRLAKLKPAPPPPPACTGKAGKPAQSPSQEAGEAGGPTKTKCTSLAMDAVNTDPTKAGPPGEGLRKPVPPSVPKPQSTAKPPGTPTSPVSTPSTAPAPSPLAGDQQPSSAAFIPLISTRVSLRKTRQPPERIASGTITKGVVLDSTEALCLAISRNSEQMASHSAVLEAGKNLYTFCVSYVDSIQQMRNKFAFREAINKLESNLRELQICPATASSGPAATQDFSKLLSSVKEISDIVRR
Sequence of UniProt O75417 (whole entry, looked up): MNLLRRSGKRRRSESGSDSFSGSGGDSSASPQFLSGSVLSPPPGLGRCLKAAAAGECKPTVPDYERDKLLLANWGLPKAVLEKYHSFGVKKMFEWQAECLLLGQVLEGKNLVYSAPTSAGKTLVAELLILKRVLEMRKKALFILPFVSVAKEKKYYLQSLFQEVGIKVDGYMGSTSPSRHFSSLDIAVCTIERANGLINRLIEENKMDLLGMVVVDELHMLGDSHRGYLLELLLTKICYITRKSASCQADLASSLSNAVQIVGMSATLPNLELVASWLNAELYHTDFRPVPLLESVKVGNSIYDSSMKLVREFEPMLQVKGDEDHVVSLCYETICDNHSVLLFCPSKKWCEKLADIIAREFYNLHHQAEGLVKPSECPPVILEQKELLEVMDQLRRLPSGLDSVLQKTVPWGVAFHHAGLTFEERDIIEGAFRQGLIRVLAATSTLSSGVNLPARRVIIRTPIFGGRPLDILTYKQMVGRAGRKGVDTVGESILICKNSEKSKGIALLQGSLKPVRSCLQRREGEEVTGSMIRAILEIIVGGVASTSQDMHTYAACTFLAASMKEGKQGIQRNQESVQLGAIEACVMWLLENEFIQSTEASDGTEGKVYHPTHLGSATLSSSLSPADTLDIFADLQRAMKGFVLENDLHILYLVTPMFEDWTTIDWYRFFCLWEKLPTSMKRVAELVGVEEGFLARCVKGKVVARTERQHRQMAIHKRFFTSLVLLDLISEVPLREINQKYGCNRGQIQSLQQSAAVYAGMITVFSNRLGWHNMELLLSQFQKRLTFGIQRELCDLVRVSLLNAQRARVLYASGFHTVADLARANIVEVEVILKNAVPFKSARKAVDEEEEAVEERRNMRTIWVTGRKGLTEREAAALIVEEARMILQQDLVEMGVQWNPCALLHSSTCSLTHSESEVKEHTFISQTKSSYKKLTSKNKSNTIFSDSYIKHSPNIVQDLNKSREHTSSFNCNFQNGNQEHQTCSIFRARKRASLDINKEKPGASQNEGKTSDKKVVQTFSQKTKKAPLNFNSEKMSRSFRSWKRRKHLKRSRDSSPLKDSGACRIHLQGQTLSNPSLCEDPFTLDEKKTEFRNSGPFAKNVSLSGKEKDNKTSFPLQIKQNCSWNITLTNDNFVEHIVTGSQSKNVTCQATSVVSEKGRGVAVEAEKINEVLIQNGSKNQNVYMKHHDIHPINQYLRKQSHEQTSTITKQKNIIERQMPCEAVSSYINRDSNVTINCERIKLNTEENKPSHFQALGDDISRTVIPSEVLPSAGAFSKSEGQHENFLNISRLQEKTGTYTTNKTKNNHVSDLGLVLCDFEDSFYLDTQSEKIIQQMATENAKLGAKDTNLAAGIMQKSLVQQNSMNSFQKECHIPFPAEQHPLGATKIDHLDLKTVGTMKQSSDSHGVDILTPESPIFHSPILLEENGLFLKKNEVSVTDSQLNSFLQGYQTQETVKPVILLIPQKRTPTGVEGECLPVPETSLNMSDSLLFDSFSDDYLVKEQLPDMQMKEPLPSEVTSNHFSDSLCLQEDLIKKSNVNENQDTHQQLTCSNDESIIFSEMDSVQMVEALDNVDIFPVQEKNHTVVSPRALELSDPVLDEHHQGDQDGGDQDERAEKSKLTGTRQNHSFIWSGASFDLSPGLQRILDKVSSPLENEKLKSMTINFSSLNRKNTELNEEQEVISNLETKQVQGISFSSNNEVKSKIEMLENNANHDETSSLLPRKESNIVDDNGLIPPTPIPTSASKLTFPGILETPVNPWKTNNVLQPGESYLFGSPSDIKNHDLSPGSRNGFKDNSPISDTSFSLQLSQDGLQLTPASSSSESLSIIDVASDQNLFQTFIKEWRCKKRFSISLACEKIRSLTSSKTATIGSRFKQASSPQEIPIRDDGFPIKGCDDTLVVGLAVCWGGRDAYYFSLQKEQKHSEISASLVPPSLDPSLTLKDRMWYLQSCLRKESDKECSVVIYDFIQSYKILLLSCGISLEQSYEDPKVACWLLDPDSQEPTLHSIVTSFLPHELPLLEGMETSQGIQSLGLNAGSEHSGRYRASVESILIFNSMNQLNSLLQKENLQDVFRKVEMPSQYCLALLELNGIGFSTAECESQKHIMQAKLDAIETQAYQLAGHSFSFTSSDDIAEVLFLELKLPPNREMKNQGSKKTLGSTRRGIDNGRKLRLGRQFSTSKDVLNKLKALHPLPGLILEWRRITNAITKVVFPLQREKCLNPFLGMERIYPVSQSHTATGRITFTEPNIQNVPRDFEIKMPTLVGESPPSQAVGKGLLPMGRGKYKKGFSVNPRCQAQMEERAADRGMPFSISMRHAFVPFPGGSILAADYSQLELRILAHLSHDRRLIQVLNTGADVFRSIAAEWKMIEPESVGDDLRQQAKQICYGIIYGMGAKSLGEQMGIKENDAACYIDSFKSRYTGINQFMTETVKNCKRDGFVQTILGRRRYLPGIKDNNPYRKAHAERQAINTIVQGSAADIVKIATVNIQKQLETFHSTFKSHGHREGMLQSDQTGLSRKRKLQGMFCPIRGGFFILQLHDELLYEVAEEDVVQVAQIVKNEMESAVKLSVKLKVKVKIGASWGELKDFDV
Sequence of UniProt P12295 (whole entry, looked up): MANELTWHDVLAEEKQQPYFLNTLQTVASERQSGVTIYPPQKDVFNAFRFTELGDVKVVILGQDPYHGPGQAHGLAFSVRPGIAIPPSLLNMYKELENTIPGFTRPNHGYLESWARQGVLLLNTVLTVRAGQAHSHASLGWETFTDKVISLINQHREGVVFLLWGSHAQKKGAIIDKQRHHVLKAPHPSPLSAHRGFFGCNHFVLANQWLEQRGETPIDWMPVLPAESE

The remaining activity of `Cc1cnc(NC(=O)c2cccc([C@@H]3C[C@H]3NC3CCC3)c2)s1` is reported as 115% (KDM1A; demethylase activity, inhibitor, Amplex Red; 0.02469 µM, with: H3K4me2 peptide; reference: vehicle).
`COc1ccccc1-c1ccncc1C(=O)Nc1ccc(OCc2ccc(Cl)cc2)nn1` gave a remaining activity of 93% (DNA polymerase theta, helicase domain (POLQ, Homo sapiens, UniProt O75417); ATPase activity, ADP-Glo; 0.95 µM; reference: 0 µM cpd).
With `Cc1nnc(NC(=O)c2cc([C@@H]3C[C@H]3NC3CCC3)ccc2Br)s1` (relative stereo) the remaining activity was 101% (KDM1A; demethylase activity, inhibitor, Amplex Red; 0.02743 µM, with: H3K4me2 peptide; reference: vehicle).
With `Cc1cccc(-c2ccc(S(=O)(=O)N3C(=O)CC3c3ccccc3)cc2)c1` (stereo not shown) the remaining activity was 100% (Rhomboid protease AarA; enzyme activity, inhibitor; 100 µM).
`N#Cc1cnc2sc(C(=O)O)cc2c1N1CCc2[nH]nc(C(=O)N[C@@H](CC(=O)NCCOCCN3CCOCC3)c3cccc(Br)c3)c2C1` has a remaining activity of 21.1% (IL1RL2; reporter gene (SEAP), inhibitor, HEK-Blue IL-36R reporter; HEK-Blue IL-36R cells; 100 µM, 6 h, with: IL36A 0.01 ng/mL).
The remaining activity of `C=CC(=O)N1CCCC(n2c(=O)c3ncccc3n(Cc3ccc(Oc4ccccc4)cc3)c2=O)C1` (stereo not shown) is reported as 77% (ABL1 (Homo sapiens, UniProt P00519); kinase activity; 1 µM).
The remaining activity of `O=C1CC(c2ccccc2)N1S(=O)(=O)c1ccc(Br)cc1` (stereo not shown) is reported as 72% (Rhomboid protease AarA; enzyme activity, inhibitor; 100 µM).
For `COC(=O)[C@@]1(C)C=C(C(=O)Nc2cccc(C(=O)Nc3ccc(Nc4nccc(-c5cccnc5)n4)c(C)c3)c2)C(=O)CC1`, the remaining activity was 0.947 (MAPK1 (Homo sapiens, UniProt P28482); kinase activity, inhibitor; 0.06097 µM, unit not given; reference: no inhibitor).
The remaining activity of `CC(C)[C@@H]1NC(=O)[C@H](Cc2ccccc2)NC(=O)CSC[C@@H](C(N)=O)NC(=O)[C@H](CCC(=O)O)NC(=O)[C@H](CO)NC(=O)[C@H](Cc2c[nH]c3cccc(Cl)c23)NC(=O)[C@H](C2CCCCC2)NC(=O)[C@H](C(C)C)NC(=O)[C@H](Cc2ccc(O)cc2)NC(=O)[C@H](CC(=O)O)NC(=O)[C@H](Cc2c[nH]c3ccccc23)NC(=O)[C@H](Cc2ccc(N)nc2)NC(=O)[C@H](Cc2c[nH]c3ccc(Cl)cc23)NC(=O)[C@H](CCC(=O)O)NC1=O` is reported as 83.6% (IL1RL2; reporter gene (SEAP), inhibitor, HEK-Blue IL-36R reporter; HEK-Blue IL-36R cells; 0.005 µM, 6 h, with: IL-36β 3 ng/mL).
With `O=C(Nc1ccccc1)c1cccc([C@@H]2C[C@H]2NC2CCC2)c1` (racemic) the remaining activity was 67.9% (KDM1A; demethylase activity, inhibitor, Amplex Red; 0.07407 µM, with: H3K4me2 peptide; reference: vehicle).
With `CCC1(O)CCCN(C(=O)c2ccc(-c3ccccc3C(F)(F)F)cc2)C1` (stereo not shown) the remaining activity was 108 ± 3% (ung (Escherichia coli, UniProt P12295); enzyme activity, inhibitor; concentration not given, counter-screen).
The remaining activity of `CNC(=O)c1cccc([C@@H]2C[C@H]2NC2CCC2)c1` (racemic) is reported as 82.2% (KDM1A; demethylase activity, inhibitor; 1.852 µM, with: H3K4me2 peptide).
For `COc1ccc(NC(=O)Nc2ccc3c(c2)C(=O)N(C(C)CO)CC(C)C(CN(C)Cc2ccc4c(c2)OCO4)O3)cc1` (stereo not shown), the remaining activity was 99% (Abl1 (Mus musculus, UniProt P00520); kinase activity; 0.03 µM; reference: control).

Repeated from above:
For `COC(=O)[C@@]1(C)C=C(C(=O)Nc2cccc(C(=O)Nc3ccc(Nc4nccc(-c5cccnc5)n4)c(C)c3)c2)C(=O)CC1`, the remaining activity was 0.947 (MAPK1 (Homo sapiens, UniProt P28482); kinase activity, inhibitor; 0.06097 µM, unit not given; reference: no inhibitor).
